Measured values pooled from the literature.
Values joined by “and” are separate records of one study, mostly repeats; a detail may differ.
Target: Dual specificity tyrosine-phosphorylation-regulated kinase 1B (DYRK1B, Homo sapiens, UniProt Q9Y463)

| SMILES | assay | setting | how to read | quantity | value |
| --- | --- | --- | --- | --- | --- |
| Nc1ncc2c(n1)-c1c([nH]c3ccc(C4=CCOCC4)cc13)CCC2 | binding, competition with immobilised ligand | 1 µM |  | remaining binding | 48% |
| COCC12C(=O)NC3C4(C(OC)CC1O)C1CC5(O)C(OC)C(O)C(OC(C)=O)(C1C5OC(=O)c1ccccc1)C3(O)C(OC)C24 (stereo not drawn) | kinase activity, inhibitor, ProQinase kinase profiling | 25 µM | relative to: control | remaining activity | 110% and 108% |
| CCn1cc(C(=O)O)c(=O)c2c(N)c(F)c(NC3CCCCC3)cc21 | kinase activity | 0.1 µM, with: ATP at Km |  | inhibition | 54.2% |
| C=CC(=O)N1CCCC(n2c(=O)c3ncccc3n(Cc3ccc(Oc4ccccc4)cc3)c2=O)C1 (stereo not drawn) | cell-free assay, competition with immobilised ligand | 1 µM |  | remaining binding | 77% |
| Cc1ccc(-c2c(/C=C(\C#N)C(=O)NC(C)C)n(CCCO)c3ncnc(N)c23)cc1 | cell-free assay, competition with immobilised ligand | 1 µM |  | remaining binding | 100% |
| O=C(Nc1cc(-c2ccnc3[nH]ccc23)c(Cl)cn1)[C@H]1CCC[C@@H](NC(=O)C(F)(F)F)C1 | binding, competition with immobilised ligand | 0.1 µM |  | remaining binding | 17% |
| C=CC(=O)N1Cc2nc(-c3cc(-c4cc(Cl)cnc4Cl)c(F)cc3F)n(-c3ccncn3)c2C1 | cell-free assay | 1 µM |  | inhibition | 10.4% |
| C=CC(=O)Nc1cccc(-c2cnc3[nH]cc(C(=O)NC(C)(C)C)c3n2)c1 | kinase activity | 0.1 µM |  | inhibition | 5% and 4% |
| NC(=O)C[C@H]1CCc2sc3ncnc(O[C@H]4CC[C@H](N5CCOCC5)CC4)c3c21 | enzyme activity, inhibitor | 10 µM |  | inhibition | 38% |
| Cc1cnc2nc1Nc1cccc(c1)COC/C=C/COCc1cc(ccc1OCCN1CCOCC1)N2 | binding | 0.1 µM |  | remaining binding | 84% |
| CN1CCN(Cc2ccc(NC(=O)c3cccc(C#Cc4cnc(N)c5ncccc45)c3)cc2C(F)(F)F)CC1 | cell-free assay, competition with immobilised ligand | 50 nM |  | remaining binding | 45% |
| CC(=O)N1c2ccc(-c3ccc(CNC(=O)c4cn5cc(-c6cnc(N)nc6)nc(N6CCOCC6)c5n4)cc3)cc2CC[C@@H]1C | KINOMEscan | 10 µM |  | remaining binding | 98% |
| C=CC(=O)N1CCc2ccc(-n3c(=O)ccc4cnc5ccc(-c6cnn(C)c6)cc5c43)cc21 | KINOMEscan | 1 µM | relative to: DMSO control | remaining binding | 68% |
| COc1cc(Nc2nccc(-c3cnn4nc(OC)ccc34)n2)cc(C(F)(F)F)c1 | binding, competition with immobilised ligand | 1 µM |  | remaining binding | 76% |
| CC(C)=CC1OC(C)(C)C2C=C3C(=O)C(Cl)=CC(O)C3C3C(O)C4OC4C(=O)C132 (stereo not drawn) | cell-free assay, competition with immobilised ligand | 10 µM |  | remaining binding | 92% |
| Cc1cccc(O[C@H]2CCC[C@@H](C(C)CNCc3ccncc3)C2)c1 (relative stereo) | cell-free assay | 1 µM |  | inhibition | 4% |
| CNC(=O)C1CCN(c2cc(C)c(F)cc2NC(=O)c2ccc(-c3cc(O)ccc3C)c(C)c2)CC1 | binding, competition with immobilised ligand | 1 µM |  | remaining binding | 52% |
| COc1cc(-n2cc3cc(F)cc(C(N)=O)c3n2)cc(Cl)c1C1CC(O)(CCO)Cc2ccccc21 (stereo not drawn) | enzyme activity, inhibitor | 10 µM |  | inhibition | 1.94% |

A few entries again:
| SMILES | assay | setting | how to read | quantity | value |
| --- | --- | --- | --- | --- | --- |
| C=CC(=O)N1Cc2nc(-c3cc(-c4cc(Cl)cnc4Cl)c(F)cc3F)n(-c3ccncn3)c2C1 | cell-free assay | 1 µM |  | inhibition | 10.4% |
